Published values gathered from unrelated publications.
A part holds a random share of what one study measured.

Sample 1 — method: RNA Bind-n-Seq; form: RNA; medium: in vitro; concentration: 100 nM; relative to: input RNA pool; reading: higher = stronger binding; measurement: bound/input enrichment
Target: RING finger protein unkempt homolog, zinc fingers 1-6, SBP tag (UNK, Homo sapiens, UniProt Q9C0B0, residues 30-357)
Chain of UniProt Q9C0B0 (30-357, looked up): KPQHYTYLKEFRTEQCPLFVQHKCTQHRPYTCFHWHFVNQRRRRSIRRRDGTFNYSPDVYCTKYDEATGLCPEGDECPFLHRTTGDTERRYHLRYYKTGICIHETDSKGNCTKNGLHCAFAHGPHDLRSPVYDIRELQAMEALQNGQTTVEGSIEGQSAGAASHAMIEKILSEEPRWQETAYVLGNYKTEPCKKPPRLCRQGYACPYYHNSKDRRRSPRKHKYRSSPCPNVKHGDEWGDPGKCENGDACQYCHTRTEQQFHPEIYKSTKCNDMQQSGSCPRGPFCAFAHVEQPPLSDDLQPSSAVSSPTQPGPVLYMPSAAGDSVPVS
Setting: RNA with constant flanks, vertebrate orthologous sites, ends assumed
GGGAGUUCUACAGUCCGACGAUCCUAGUCUUCCACUUAGGGUUGGCCUCAAAUCUAUAGGACUUAUGACAAAUGUAUAUCUGCUUAGGUUGAGUUUAAUAUUUUUUUAUUAACCUGUAAAUAAAGAUUGCAUCUUCUACAUUACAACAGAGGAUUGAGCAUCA: 0.496 ratio
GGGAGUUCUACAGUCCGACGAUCGUGAGGGUCUGCUGACCACUCGCUGUUACGUCUGGUAUCUGUAAACGCUCUUUUUGUUCUUAGUCUUUUUCUUGUAUAAUUGAUACUCUUUAAAAUUGUUAAUGUAUAACAGGGCUCAUGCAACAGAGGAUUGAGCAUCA: 2.33 ratio
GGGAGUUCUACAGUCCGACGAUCAUCCUUCUACCGUCCCCAGCCAGGGCCAAGGACCUCAGCUGUUUCACUGAGGACCUGCAUCUAAAACAAUUUUUUUAAUUGUUAUACAGGAAGAGAUGUGACUAAAACACCAUCUCAAAGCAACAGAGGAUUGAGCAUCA: 0.288 ratio
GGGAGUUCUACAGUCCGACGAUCAUUAUAGCAAAAAGAGCCAAGCAGUAGCAUUGUGGGGUUUUUUGUAAAUGUAAAAAUACUUAGAUCCAGACUUUGUUUCCUUCAAUUUUAAAAAUAAAAAAUACCUCAGUGCUAUGUUUUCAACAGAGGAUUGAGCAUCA: 0.649 ratio
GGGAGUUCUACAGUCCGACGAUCGCCAUUUUUUUUCCACAUUUUCUGUAAAUAAUGGAUAAUCAUUUUUAAAAAUUUUAUUUUUAGUGCUGUUUUAGCAAUGUGGAUAGAUCAUAAAUGUACUUGCUGAAUUCAAUCAUUUUUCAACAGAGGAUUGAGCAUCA: 0.401 ratio
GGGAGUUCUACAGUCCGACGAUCUUCAGGCACAACUGACUGGUUCACAGCAUUCCUUACAUAGCUAUCUGUCAAAUGCAAGUGUGGUUAAUUUUCAGGAAACAAGUAGGCAGUCAUCUUUAUCCUGUAGCCCAGUUGGAGAUUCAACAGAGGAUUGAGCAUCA: 0.993 ratio
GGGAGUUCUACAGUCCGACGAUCGUGUUUUGGUACAAAGCUGUGUACCAAUACUCAUCUUCUUUACAUUAUACCGACUAUCCCUAGAAAUAGUUUAAUAUUUUUCAGAAUUUUACAUUGCUGUAUAUUCAAAAUUUUAAAGAUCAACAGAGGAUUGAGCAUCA: 0.53 ratio
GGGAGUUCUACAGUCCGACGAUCAGGGACGCUUUGAUGUAAAAAUUGAAGUUAAGAGCUGAUCGCAAGCACAAAUCUUUCUCACUAGCCAUUUAAAAAGUUAAAAAAGAUACAAAAACAAAAACCUACUAGUCUUGAAUAAACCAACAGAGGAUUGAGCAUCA: 0.798 ratio
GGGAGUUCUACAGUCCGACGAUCUAUAAUUAUGAAAAUCUAAAGGAUUUUUAAUGUUUAAUUUCCCCCAGCAUCUAUAUUAAGACCUCUUUUUUCCAGGCAGAUCAUUCAGAGUGUGCGAGUGUGUGUGCACAUGUUACAAAGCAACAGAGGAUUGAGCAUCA: 0.535 ratio
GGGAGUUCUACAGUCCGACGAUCUCAUUGUAAUGCACAAAUCAUCUUACUUCUCAAUUAUCUAUGGUGGUAACUAGUCUGCACUAGUAAAAUCAUUUACUCUUAUCUUUUGAAAUACCUGCUUUGUCUGAUACCUGAAACACGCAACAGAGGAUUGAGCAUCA: 1.15 ratio
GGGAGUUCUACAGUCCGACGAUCAGUUUGUAUGUACAUUAUUCACAUUCCUCUCUGUUGUGUUUGGGGGAAAAAAAAGACAUUUUAGCCUUUUUUAAGGUUAUUGAUUUAAUUUCAUGUUAUUUGGUUGCAUGAAGUUGCCCUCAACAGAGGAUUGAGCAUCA: 0.417 ratio

Sample 2 — method: protein binding microarray; form: double-stranded DNA, one strand shown; medium: in vitro; concentration: not given; relative to: not given; reading: higher = stronger binding; measurement: E-score
Target: Histone acetyltransferase KAT6A, both winged helices, GST fusion (KAT6A, Homo sapiens, UniProt Q92794, residues 1-181)
Setting: 8-mer, flanks averaged, mean of 2 arrays, mostly near background
Target sequence (chain): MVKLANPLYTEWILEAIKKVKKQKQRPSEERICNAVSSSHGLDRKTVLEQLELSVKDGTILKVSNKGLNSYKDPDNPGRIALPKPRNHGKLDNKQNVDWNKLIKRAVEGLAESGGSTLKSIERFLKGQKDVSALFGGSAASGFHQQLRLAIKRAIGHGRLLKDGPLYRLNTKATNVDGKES
AGGCCCTA: -0.191
GGTTACCA: 0.0837
GTGTAACA: -0.038
CCTCGCCA: -0.064
ACTGACAG: -0.00768
CGGAAACC: 0.217
ACCAATCT: -0.202
GAGCTCAC: -0.046
AAGCTGAT: -0.175
ATGAAAGG: -0.127
GTTACCAA: -0.0894
CTTACCAA: -0.0889
CTGCACAC: -0.156
TCCAACAA: -0.182
TCGCCTAA: 0.161
CGGTCGCC: 0.189
ACGGTAGG: 0.054
CCCCTACC: -0.17
GGCCTCAA: -0.0759
CGAATTCC: 0.0659
GGGTTTGA: 0.0115
AGTGAGAC: -0.179
AGGGCGCA: 0.202
CGCCCGAC: 0.334

Sample 3 — method: protein-binding microarray; form: double-stranded DNA, one strand shown; medium: in vitro; concentration: 250 nM; setting: 60-bp whole probe; together with: salmon DNA 0.4 mg/ml; relative to: random background probes; reading: higher = stronger binding; measurement: log fluorescence; all sequences stand within: GCCTAGCAC … GTCTTGATTCGCTTGACGCTGCTG
Target: Interferon regulatory factor 7, full length, phosphomimetic (IRF7, Homo sapiens, UniProt Q92985, residues 1-503, S101K/S471D/S472D/S475D/S476D/S477D/S483D/S484D/S487D)
Chain of UniProt Q92985 (whole entry, unmodified, looked up): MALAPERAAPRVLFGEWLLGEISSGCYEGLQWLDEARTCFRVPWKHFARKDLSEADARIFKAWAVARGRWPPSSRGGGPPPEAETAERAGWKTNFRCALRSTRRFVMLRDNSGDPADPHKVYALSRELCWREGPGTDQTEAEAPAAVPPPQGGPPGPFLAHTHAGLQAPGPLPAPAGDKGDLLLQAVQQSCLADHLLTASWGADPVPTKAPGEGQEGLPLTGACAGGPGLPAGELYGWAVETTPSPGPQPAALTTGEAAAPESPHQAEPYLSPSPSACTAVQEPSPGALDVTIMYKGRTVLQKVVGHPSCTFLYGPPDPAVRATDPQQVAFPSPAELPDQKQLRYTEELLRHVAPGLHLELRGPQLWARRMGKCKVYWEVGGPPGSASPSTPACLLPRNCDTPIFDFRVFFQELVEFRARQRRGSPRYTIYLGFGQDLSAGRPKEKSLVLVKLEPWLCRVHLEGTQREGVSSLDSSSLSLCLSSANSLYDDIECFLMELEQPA
GATGGTATCGACACTGGGGACGTGCTA: -0.335 z-score
CACGGTATCGACTATCGGGACGTGCTA: 0.23 z-score
GACGGTAGCGACTTTCGGGACGTGCTA: -0.513 z-score
TTAGGGCTCGGTCTCGGTTAGTGCTAG: 2.18 z-score
TCAACCCTCCCTCTGTAACTGTGCTAG: -0.252 z-score
GACAGTTTCCTTTCCCTGACGTGCTAG: 4.91 z-score
GTGTATATGTGATTAAAATAGTGCTAG: 0.268 z-score
TTGGAACTGGGGTTTCGATTAGTGCTA: 5.41 z-score
TTGGATATCGGGACTGGATTAGTGCTA: -0.241 z-score
TCATTTTTTTCTTTAAAACTGTGCTAG: 0.842 z-score
TTCAGTTTTCCTATGTCATTGTGCTAG: 1.43 z-score
TTTCCCTAGAAGACGAAAGAGTGCTAG: 3.6 z-score
TATGGTATTTTTTTCTAATTGTGCTAG: 1.33 z-score
GTCGGTCTCGGTTTCGGGACGTGCTAG: 8.91 z-score
GACTTTTTAGATATCTTTTTGTGCTAG: 0.631 z-score
TTAGGACTCGACACTGGGTTAGTGCTA: 0.092 z-score
TTAGGAGTGGGTTTCGGTTAGTGCTAG: 6.38 z-score
GACGGACTGGGTACTGGGGACGTGCTA: -0.643 z-score
TTACATTTCAGTTCCGATTAGTGCTAG: 1.74 z-score
GACGGTATCGGTCTCGGAACGTGCTAG: 1.21 z-score
GACGTTATCGGGACTGGGGACGTGCTA: -0.107 z-score
GACGGTTTCGGTTTCGGGACGTGCTAG: 13.7 z-score
GACGGTCTCGGTTTCTGGACGTGCTAG: 6.66 z-score
TCACACCTCTAGACTCTAACTGTGCTA: -0.121 z-score
GACAGACTGCTACTGCTGACGTGCTAG: -0.963 z-score

Sample 4 — method: competition protein-binding microarray; form: double-stranded DNA, one strand shown; medium: in vitro; concentration: 2 µM; together with: Cbf1 competitor, 0.05 µM; reading: higher = stronger binding; measurement: fluorescence intensity
Target: Phosphate system positive regulatory protein PHO4, full length, GST-tagged (PHO4, Saccharomyces cerevisiae, UniProt P07270, residues 1-312)
Setting: whole 60-bp probe, lowest competitor level
Construct (chain): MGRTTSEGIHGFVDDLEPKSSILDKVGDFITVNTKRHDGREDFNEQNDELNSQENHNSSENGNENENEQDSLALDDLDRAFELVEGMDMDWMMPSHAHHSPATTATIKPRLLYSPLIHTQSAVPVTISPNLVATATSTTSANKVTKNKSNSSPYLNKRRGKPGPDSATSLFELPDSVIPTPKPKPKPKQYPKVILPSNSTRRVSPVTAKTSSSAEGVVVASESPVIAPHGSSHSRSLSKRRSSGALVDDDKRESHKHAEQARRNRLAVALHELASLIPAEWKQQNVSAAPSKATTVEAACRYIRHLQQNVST
CCAACAAACCTTTCACACGTGGTCGGATTCAAGTTCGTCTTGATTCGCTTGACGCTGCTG: 16900 a.u.
CTTCTGTAAATTTTTCACGTGGCTTGACGCGCCCCGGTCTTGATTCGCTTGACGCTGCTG: 12800 a.u.
TGAGTTGTCGGGCTCATCGTGCTTTATCAAGTGGTTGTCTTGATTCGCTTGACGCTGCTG: 9800 a.u.
CTATTTGAAGGCCATCACGATGGTATTTTTCAAGAAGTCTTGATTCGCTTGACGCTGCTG: 7800 a.u.
CTTAGAAGGCCGGCCCGCATGATTCAGAAGCAGACCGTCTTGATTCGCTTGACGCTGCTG: 5140 a.u.
AGATGCAGGACTCGGCACGTTTTACAATACGTATCGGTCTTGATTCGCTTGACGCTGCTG: 14200 a.u.
TAAATTAGTATACTGCCCGATCAAACCATCTAGTTAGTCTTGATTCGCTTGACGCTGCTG: 3050 a.u.
GCTATACGACAGCTGCATGATCAAGTGCCGCTTGTCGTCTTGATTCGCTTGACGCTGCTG: 4600 a.u.
GTAGCAAATGCACTGCATGTGTTTCTGTGGCGGGTAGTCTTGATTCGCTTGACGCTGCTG: 10600 a.u.
CGGGGTTAAGTTTGTCACATAACTTGCTTGCAGCAGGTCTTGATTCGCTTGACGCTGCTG: 3670 a.u.
CTTCTGTAAATTTGTCACCGGACTTGACGCGCCCCGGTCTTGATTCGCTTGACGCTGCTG: 3430 a.u.
AAAAGCCAACGCCATCACGTGCAAAGAAATATCTGCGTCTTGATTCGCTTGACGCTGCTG: 16200 a.u.
GTAAATGAGGCCCATCACGCTGACTCACTCGGTCCGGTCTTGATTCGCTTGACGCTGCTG: 4810 a.u.
CTTTCCCGATCTTTTCACGTGAACTTAGCACATTTGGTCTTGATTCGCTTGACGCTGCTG: 9490 a.u.
AAATTACTAAGTTGCACCGTGGGTGACGCCGTATGAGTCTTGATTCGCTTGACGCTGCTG: 8020 a.u.
CTTGCATGGGTGGTGCCCGTGGAGGACGCTCCTAGTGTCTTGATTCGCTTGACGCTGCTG: 7440 a.u.
ATCTGGGATTGAAGACACATGAGTTTTTTTCTCACCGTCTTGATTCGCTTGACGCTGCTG: 6440 a.u.
CGCTAAAATTATAACGGCGTGCTGTAGAGAAAAACCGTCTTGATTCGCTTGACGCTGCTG: 9780 a.u.
CATACCCAACCTTGTCACTGAACTTAAGATATTTGTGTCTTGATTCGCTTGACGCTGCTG: 3890 a.u.
GTCTTGTCTCATTGTGACGTGGGTGTCCCCACTTCAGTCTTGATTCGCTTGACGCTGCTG: 6750 a.u.

Excerpt of the above (sample 2):
TCCAACAA: -0.182
TCGCCTAA: 0.161
CGGTCGCC: 0.189
ACGGTAGG: 0.054
CCCCTACC: -0.17
GGCCTCAA: -0.0759
CGAATTCC: 0.0659
GGGTTTGA: 0.0115
AGTGAGAC: -0.179
AGGGCGCA: 0.202
CGCCCGAC: 0.334
